Assay results pooled from the literature.
Protocols differ between the studies behind these lines. ± gives the spread as reported.
UCHL1: Ubiquitin carboxyl-terminal hydrolase isozyme L1 (UCHL1, Homo sapiens, UniProt P09936)
Chain of UniProt P09936 (whole entry, looked up): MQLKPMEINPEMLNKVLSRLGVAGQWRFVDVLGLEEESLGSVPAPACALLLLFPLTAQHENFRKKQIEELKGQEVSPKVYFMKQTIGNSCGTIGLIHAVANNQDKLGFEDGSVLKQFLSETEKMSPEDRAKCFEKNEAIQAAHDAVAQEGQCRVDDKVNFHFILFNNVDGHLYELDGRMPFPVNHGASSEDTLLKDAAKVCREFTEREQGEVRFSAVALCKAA
Chain of UniProt Q07794 (whole entry, looked up): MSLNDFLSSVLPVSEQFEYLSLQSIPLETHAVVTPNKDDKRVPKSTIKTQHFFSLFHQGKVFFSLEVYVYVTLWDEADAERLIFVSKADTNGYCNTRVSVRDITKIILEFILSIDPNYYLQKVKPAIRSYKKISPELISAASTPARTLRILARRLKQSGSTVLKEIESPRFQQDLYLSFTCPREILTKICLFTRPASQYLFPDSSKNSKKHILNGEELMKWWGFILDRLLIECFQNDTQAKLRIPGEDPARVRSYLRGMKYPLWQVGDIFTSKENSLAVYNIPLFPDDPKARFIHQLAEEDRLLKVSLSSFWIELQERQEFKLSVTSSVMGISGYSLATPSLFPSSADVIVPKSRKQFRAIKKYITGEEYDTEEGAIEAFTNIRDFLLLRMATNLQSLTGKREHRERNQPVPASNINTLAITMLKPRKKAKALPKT

Structure (SMILES) = OC(CCN1CCCCC1)(c1ccccc1)C1CC2C=CC1C2 (stereo not shown); assay = resting-state EEG; system = healthy elderly humans; conditions = oral, 4 mg, eyes open, LS mean; quantity = EEG Alpha2-power Pz-O1; result = 3 µV²
Structure (SMILES) = CCCC(=O)OCSc1ccccc1C(=O)NCCOc1ccnc2ccc(F)cc12; tested on = HIV-1; assay = virus-induced cytopathic effect, inhibitor, XTT; system = CEM-SS, RF; conditions = 6 days; quantity = EC50; result = > 15.5 µM
Structure (SMILES) = COc1ccc(Nc2cnnc3ccc(-c4cnc(N5CCCN(C)CC5)nc4)cc23)cc1Cl; tested on = Leishmania donovani; system = B10R cells; quantity = EC50; result = > 10 µM
Structure (SMILES) = CNc1ncnc2c1nnn2[C@@H]1C(F)=C(CO)[C@@H](O)[C@H]1O; tested on = dengue virus type 2; assay = viral replication, luciferase reporter; system = BHK-D2-Rluc; conditions = 48 h; quantity = EC50; result = > 100 µM
Structure (SMILES) = Nc1ccn(C[C@@H](CO)OCP(=O)(O)O)c(=O)n1; tested on = varicella-zoster virus; assay = cytopathic effect; system = HFF, Ellen; conditions = 14 d; quantity = EC50; result = 0.52 µM
Structure (SMILES) = NC(=O)c1ncn([C@@H]2O[C@H](CO)[C@@H](O)[C@H]2O)n1; tested on = dengue virus type 2; assay = viral replication, luciferase reporter; system = BHK-D2-Rluc; conditions = 48 h; quantity = EC50; result = 21.7 µM
Structure (SMILES) = CN1CCN(c2ncc(-c3ccc4nncc(Nc5ncccn5)c4c3)cn2)CC1; tested on = Leishmania donovani; system = B10R cells; quantity = EC50; result = > 10 µM
Structure (SMILES) = Nc1nc(N)c2nnn([C@@H]3C(F)=C(CO)[C@@H](O)[C@H]3O)c2n1; tested on = dengue virus type 2; assay = viral replication, luciferase reporter; system = BHK-D2-Rluc; conditions = 48 h; quantity = EC50; result = > 100 µM
Structure (SMILES) = O=c1[nH]cc(F)c(=O)[nH]1; tested on = Toxoplasma gondii; assay = parasite growth; system = HFF, bradyzoite, glutamine-induced; quantity = EC50; result = 1.62 µM
Structure (SMILES) = Cc1cc(C)c(NC(=O)C(C#N)=Cc2ccc(C(C)(C)C)cc2)c(C)c1; tested on = UCHL1; assay = covalent, intact protein LC-MS; conditions = 12.5 µM; quantity = labelling; result = 9.86%
Structure (SMILES) = Cn1cnc([N+](=O)[O-])c1Sc1ccccc1C(=O)NCCn1cc(C(=O)NCc2ccccn2)c(=O)c2cc3c(cc21)OCO3; tested on = HIV-1; assay = viral replication; system = human PBMC, 92RW009; quantity = EC50; result = 11.2 ± 4.65 µM
Structure (SMILES) = O=C1c2ccccc2C(=O)c2c(NCCc3ccc(O)cc3)ccc(NCCc3ccc(O)cc3)c21; tested on = Toxoplasma gondii; assay = bradyzoite growth; conditions = glutamine-induced bradyzoites, glucose-free medium; quantity = EC50; result = 4.48 µM
Structure (SMILES) = Cn1cc(-c2ccc(-c3cncc(Cl)c3N3CCC4(CCNC4=O)CC3)cc2)cn1; tested on = COLO 205; assay = microarray, refers to: FAS; conditions = concentration not given, 6 h, gene set FasR(CD95); how to read = relative to: untreated cells; quantity = fold change in expression; result = 4.15
Structure (SMILES) = CN1CCN(c2ccc(-c3ccc4nncc(Nc5cnccn5)c4c3)cc2)CC1; tested on = Leishmania donovani; system = B10R cells; quantity = EC50; result = > 10 µM
Structure (SMILES) = C#CCN1C(=O)C(=NNC(=O)OCC)c2cc(Br)ccc21; tested on = UCHL1; assay = covalent, intact protein LC-MS; conditions = 12.5 µM; quantity = labelling; result = 12.3%
Structure (SMILES) = COc1ccc(Nc2cnnc3ccc(-c4cnc(N5CCN(C)CC5)nc4)cc23)cc1Cl; tested on = Leishmania donovani; system = B10R cells; quantity = EC50; result = > 10 µM
Structure (SMILES) = CCCC(=O)OCSc1ccccc1C(=O)NCCn1ccc(=O)c2cc([N+](=O)[O-])ccc21; tested on = HIV-1; assay = virus-induced cytopathic effect, inhibitor, XTT; system = CEM-SS, RF; conditions = 6 days; quantity = EC50; result = 0.54 ± 0.1 µM
Structure (SMILES) = COc1ccc(Nc2cnnc3cc(-c4ccc(N5CCN(C)CC5)cc4)ccc23)nc1; tested on = Leishmania donovani; system = B10R cells; quantity = EC50; result = 0.19 µM
Structure (SMILES) = Cc1cn([C@H]2C[C@H](N=[N+]=[N-])[C@@H](CO)O2)c(=O)[nH]c1=O; tested on = HIV-1; assay = viral cytopathic effect, XTT; system = CEM-SS, RF; conditions = no added glutathione; quantity = EC50; result = 0.02 ± 0.01 µM
Structure (SMILES) = O=C(Nc1ccncc1)c1cc([N+](=O)[O-])ccc1Cl; tested on = Toxoplasma gondii; assay = tachyzoite growth, luciferase; system = ME49-Fluc, type II; quantity = EC50; result = 0.87 µM
Structure (SMILES) = O=c1[nH]cnc2c1nnn2[C@@H]1C(F)=C(CO)[C@@H](O)[C@H]1O; tested on = dengue virus type 2; assay = viral replication, luciferase reporter; system = BHK-D2-Rluc; conditions = 48 h; quantity = EC50; result = > 100 µM
Structure (SMILES) = O=C(CCC(=O)Nc1ccc(Cl)cc1Cl)N/N=C/c1ccc([N+](=O)[O-])o1; tested on = Trypanosoma cruzi; assay = reporter translation, Renilla luciferase mRNA translation; system = cell-free extract; conditions = 40 µM; how to read = relative to: DMSO; quantity = inhibition; result = 6.9%
Structure (SMILES) = CN1CCN(c2ccc(-c3ccc4nncc(Nc5ncccn5)c4c3)cc2)CC1; tested on = Leishmania donovani; system = B10R cells; quantity = EC50; result = 2.5 µM
Structure (SMILES) = COC(=O)C1=C(C)NC(C)=C(C(=O)OC(C)(C)CN(C)CCC(c2ccccc2)c2ccccc2)C1c1cccc([N+](=O)[O-])c1 (stereo not shown); tested on = Toxoplasma gondii; assay = parasite growth, luciferase reporter; system = HFF, tachyzoite; conditions = 72 h; quantity = EC50; result = 9.34 µM
Structure (SMILES) = CCCC(=O)OCSc1ccccc1C(=O)NCCn1ccc(=O)c2cc(OC)ccc21; tested on = HIV-1; assay = viral replication, refers to: reverse transcriptase; system = human PBMC, 92HT599; conditions = 7 days; quantity = EC50; result = 1.11 ± 0.93 µM
Structure (SMILES) = O=C(c1ccc(Nc2nccc(-c3cc4ccccc4s3)n2)cc1)N1CCC(N2CCCC2)CC1; tested on = Toxoplasma gondii; assay = parasite growth, luciferase reporter; system = HFF, tachyzoite; conditions = 72 h; quantity = EC50; result = 2.58 µM
Structure (SMILES) = c1coc(-c2n[nH]cc2-c2ccnc3ccccc23)c1; tested on = FUN31 (Candida albicans); assay = kinase binding, MIB/MS competition; system = Candida albicans lysate; conditions = 10 µM; how to read = relative to: DMSO; quantity = log2 fold change; result = 0.2
Structure (SMILES) = CCCC(=O)OCSc1ccccc1C(=O)NCC(=O)NCCn1ccc(=O)c2cc3c(cc21)OCO3; tested on = HIV-1; assay = virus-induced cytopathic effect, inhibitor, XTT; system = CEM-SS, RF; conditions = 6 days; quantity = EC50; result = 75.4 ± 9.2 µM
Structure (SMILES) = CC(=O)[C@]1(O)Cc2c(O)c3c(c(O)c2[C@@H](O[C@H]2C[C@H](N)[C@H](O)[C@H](C)O2)C1)C(=O)c1ccccc1C3=O; tested on = Toxoplasma gondii; assay = parasite growth, luciferase reporter; system = HFF, tachyzoite; conditions = 72 h; quantity = EC50; result = 0.188 µM
Structure (SMILES) = CN1CCCN(c2ncc(-c3ccc4nncc(Nc5cnccn5)c4c3)cn2)CC1; tested on = Leishmania donovani; system = B10R cells; quantity = EC50; result = > 10 µM
Structure (SMILES) = Sc1nnnn1-c1ccccc1; tested on = Histone acetyltransferase RTT109, with Vps75 (Saccharomyces cerevisiae, UniProt Q07794); assay = enzyme activity, inhibitor, HTS, CPM-based, dose response; quantity = IC50; result = > 125 µM
Structure (SMILES) = Cc1cc(OC(C)C)ccc1C(=O)C(C)(C)NC(=O)c1sccc1C; tested on = Plenodomus lingam; assay = mycelial growth; system = PSA medium; conditions = 20 °C, suspension concentrate 400 g/L; quantity = EC50; result = 0.07 µg/mL
Structure (SMILES) = CCCC(=O)OCSc1ccccc1C(=O)NCCn1cc(C(=O)NCc2ccccn2)c(=O)c2cc3c(cc21)OCO3; tested on = HIV-1; assay = viral replication; system = human PBMC, 92RW009; quantity = EC50; result = 0.6 ± 0.32 µM
Structure (SMILES) = Cc1ccc(S(=O)(=O)/C=C/C#N)cc1; tested on = Toxoplasma gondii; assay = parasite growth; system = HFF, bradyzoite, alkaline-induced; quantity = EC50; result = 5.07 µM
Structure (SMILES) = CCCC(=O)OCSc1ccccc1C(=O)NCCn1cc(C(=O)NCc2cccc(C)n2)c(=O)c2cc3c(cc21)OC(F)(F)O3; tested on = HIV-1; assay = virus-induced cytopathic effect, inhibitor, XTT; system = CEM-SS, RF; conditions = 6 days; quantity = EC50; result = 1.38 ± 0.48 µM
Structure (SMILES) = O=[N+]([O-])c1ccc2c(c1)S(=O)(=O)C=C2; tested on = Toxoplasma gondii; assay = parasite growth, luciferase reporter; system = HFF, tachyzoite; conditions = 72 h; quantity = EC50; result = 4.34 µM
Structure (SMILES) = CN1CCN(c2ccc(-c3ccc4c(Nc5cnccn5)cnnc4c3)cc2)CC1; tested on = Leishmania donovani; system = B10R cells; quantity = EC50; result = 6.6 µM

A few entries again:
Structure (SMILES) = CN1CCCN(c2ncc(-c3ccc4nncc(Nc5cnccn5)c4c3)cn2)CC1; tested on = Leishmania donovani; system = B10R cells; quantity = EC50; result = > 10 µM
Structure (SMILES) = CC(=O)[C@]1(O)Cc2c(O)c3c(c(O)c2[C@@H](O[C@H]2C[C@H](N)[C@H](O)[C@H](C)O2)C1)C(=O)c1ccccc1C3=O; tested on = Toxoplasma gondii; assay = parasite growth, luciferase reporter; system = HFF, tachyzoite; conditions = 72 h; quantity = EC50; result = 0.188 µM
Structure (SMILES) = CCCC(=O)OCSc1ccccc1C(=O)NCCOc1ccnc2ccc(F)cc12; tested on = HIV-1; assay = virus-induced cytopathic effect, inhibitor, XTT; system = CEM-SS, RF; conditions = 6 days; quantity = EC50; result = > 15.5 µM
Structure (SMILES) = CCCC(=O)OCSc1ccccc1C(=O)NCCn1cc(C(=O)NCc2cccc(C)n2)c(=O)c2cc3c(cc21)OC(F)(F)O3; tested on = HIV-1; assay = virus-induced cytopathic effect, inhibitor, XTT; system = CEM-SS, RF; conditions = 6 days; quantity = EC50; result = 1.38 ± 0.48 µM
Structure (SMILES) = O=C(c1ccc(Nc2nccc(-c3cc4ccccc4s3)n2)cc1)N1CCC(N2CCCC2)CC1; tested on = Toxoplasma gondii; assay = parasite growth, luciferase reporter; system = HFF, tachyzoite; conditions = 72 h; quantity = EC50; result = 2.58 µM
Structure (SMILES) = Cn1cnc([N+](=O)[O-])c1Sc1ccccc1C(=O)NCCn1cc(C(=O)NCc2ccccn2)c(=O)c2cc3c(cc21)OCO3; tested on = HIV-1; assay = viral replication; system = human PBMC, 92RW009; quantity = EC50; result = 11.2 ± 4.65 µM
